Results of several laboratories.
Every numbered part comes from another study and shows a few of its results, in no order.
Chain of UniProt Q02156 (whole entry, looked up): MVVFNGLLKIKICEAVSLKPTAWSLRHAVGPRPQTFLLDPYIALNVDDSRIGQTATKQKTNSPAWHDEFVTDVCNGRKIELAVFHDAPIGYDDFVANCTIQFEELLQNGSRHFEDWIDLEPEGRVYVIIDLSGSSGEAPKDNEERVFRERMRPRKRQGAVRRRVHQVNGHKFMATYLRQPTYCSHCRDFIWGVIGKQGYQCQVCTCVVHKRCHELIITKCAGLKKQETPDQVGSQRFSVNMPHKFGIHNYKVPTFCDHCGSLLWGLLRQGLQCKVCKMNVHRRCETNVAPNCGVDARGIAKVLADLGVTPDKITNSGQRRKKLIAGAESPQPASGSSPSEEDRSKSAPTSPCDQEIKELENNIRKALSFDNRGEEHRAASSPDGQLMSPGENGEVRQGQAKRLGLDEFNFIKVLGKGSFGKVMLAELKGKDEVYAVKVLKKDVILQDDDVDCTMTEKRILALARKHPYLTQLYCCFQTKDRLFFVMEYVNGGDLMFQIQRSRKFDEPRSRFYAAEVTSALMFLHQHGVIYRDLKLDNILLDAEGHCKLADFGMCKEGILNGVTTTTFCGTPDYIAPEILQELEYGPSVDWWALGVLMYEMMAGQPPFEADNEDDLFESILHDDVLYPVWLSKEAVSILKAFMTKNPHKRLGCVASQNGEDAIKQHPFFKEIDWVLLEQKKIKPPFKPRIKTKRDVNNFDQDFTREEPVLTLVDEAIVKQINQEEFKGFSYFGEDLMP
Chain of UniProt Q02750 (whole entry, looked up): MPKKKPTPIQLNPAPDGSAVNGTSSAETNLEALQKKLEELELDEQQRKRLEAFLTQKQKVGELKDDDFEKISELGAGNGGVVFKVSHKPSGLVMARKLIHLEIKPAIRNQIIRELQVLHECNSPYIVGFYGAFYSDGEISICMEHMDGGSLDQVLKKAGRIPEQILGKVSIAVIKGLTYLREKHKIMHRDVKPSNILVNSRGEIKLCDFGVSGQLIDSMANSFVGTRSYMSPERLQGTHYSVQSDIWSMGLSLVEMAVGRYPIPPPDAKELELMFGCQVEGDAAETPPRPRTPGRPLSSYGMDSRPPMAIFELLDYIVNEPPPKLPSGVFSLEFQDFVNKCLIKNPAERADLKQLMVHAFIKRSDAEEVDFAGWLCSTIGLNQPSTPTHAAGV
Chain of UniProt Q86UX6 (whole entry, looked up): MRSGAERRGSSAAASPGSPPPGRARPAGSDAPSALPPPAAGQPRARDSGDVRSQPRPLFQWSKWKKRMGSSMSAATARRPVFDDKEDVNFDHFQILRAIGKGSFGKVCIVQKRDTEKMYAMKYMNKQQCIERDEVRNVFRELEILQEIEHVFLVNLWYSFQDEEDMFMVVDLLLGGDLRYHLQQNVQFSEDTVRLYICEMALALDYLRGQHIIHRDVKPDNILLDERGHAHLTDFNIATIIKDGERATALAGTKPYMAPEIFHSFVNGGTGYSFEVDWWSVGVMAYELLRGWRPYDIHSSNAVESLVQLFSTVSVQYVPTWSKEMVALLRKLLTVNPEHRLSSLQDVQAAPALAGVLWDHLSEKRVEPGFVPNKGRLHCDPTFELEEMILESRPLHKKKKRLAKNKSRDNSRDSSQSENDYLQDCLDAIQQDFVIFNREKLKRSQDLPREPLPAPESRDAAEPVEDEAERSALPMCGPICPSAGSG
Chain of UniProt P42336 (whole entry, unmodified, looked up): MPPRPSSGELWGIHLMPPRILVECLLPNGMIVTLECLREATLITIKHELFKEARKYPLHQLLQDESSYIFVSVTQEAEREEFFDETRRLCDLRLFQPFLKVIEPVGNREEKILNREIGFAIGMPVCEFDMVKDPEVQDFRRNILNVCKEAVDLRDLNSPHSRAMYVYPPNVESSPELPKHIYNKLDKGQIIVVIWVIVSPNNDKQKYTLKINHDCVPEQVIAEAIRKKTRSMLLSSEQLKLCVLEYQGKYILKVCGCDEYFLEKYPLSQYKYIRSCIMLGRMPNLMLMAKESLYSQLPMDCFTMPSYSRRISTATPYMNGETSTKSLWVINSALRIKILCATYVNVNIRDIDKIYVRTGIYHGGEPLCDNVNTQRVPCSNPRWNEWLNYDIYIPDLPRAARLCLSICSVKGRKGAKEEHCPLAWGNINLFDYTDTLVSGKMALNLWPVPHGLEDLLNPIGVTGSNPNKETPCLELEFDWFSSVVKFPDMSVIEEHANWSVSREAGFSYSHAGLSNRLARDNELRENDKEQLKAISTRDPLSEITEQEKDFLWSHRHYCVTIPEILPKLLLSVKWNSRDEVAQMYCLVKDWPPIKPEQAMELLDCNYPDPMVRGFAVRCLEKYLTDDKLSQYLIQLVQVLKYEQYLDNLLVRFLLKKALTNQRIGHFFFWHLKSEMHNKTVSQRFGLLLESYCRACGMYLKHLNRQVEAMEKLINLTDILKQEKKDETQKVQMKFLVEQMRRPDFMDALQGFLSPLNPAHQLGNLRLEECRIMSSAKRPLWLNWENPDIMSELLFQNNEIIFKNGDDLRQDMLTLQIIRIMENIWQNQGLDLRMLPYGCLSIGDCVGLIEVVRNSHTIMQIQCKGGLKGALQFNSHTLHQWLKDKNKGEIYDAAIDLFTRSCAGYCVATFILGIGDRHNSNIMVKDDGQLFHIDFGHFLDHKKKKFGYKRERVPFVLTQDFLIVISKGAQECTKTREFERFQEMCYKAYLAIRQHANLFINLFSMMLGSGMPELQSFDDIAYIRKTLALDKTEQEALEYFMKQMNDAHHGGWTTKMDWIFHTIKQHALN
Chain of UniProt Q08881 (whole entry, looked up): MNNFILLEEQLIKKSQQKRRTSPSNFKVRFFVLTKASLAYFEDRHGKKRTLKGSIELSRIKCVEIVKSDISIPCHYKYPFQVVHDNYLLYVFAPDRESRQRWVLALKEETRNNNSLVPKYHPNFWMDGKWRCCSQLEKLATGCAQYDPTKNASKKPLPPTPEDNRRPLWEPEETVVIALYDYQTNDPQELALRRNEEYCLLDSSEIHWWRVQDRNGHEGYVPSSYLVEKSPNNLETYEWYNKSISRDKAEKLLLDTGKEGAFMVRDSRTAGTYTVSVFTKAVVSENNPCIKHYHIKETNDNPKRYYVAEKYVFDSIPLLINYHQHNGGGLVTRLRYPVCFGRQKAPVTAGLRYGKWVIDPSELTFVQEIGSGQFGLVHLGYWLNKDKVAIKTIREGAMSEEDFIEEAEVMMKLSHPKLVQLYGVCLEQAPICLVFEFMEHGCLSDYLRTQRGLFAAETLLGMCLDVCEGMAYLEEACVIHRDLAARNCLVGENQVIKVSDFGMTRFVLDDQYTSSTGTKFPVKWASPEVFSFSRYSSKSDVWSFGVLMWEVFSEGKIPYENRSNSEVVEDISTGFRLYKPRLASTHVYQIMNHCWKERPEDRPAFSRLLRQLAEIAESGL
Chain of UniProt Q8WU08 (whole entry, looked up): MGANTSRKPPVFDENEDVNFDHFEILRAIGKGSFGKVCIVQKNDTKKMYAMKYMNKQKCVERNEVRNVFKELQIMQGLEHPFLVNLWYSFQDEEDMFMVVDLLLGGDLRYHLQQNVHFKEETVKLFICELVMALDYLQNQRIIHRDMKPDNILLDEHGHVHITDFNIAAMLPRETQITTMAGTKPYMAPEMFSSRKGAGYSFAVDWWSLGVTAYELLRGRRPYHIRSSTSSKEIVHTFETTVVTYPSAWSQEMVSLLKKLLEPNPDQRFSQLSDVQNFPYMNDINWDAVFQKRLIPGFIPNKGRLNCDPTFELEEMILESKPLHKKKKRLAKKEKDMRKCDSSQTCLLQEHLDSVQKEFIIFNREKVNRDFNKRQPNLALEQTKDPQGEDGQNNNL

Sample 1
Target: Alpha-1A adrenergic receptor (ADRA1A, Homo sapiens, UniProt P35348)
Read-out: binding
Technique: radioligand binding
Concentration: 10 µM
Construct (P35348 1-466): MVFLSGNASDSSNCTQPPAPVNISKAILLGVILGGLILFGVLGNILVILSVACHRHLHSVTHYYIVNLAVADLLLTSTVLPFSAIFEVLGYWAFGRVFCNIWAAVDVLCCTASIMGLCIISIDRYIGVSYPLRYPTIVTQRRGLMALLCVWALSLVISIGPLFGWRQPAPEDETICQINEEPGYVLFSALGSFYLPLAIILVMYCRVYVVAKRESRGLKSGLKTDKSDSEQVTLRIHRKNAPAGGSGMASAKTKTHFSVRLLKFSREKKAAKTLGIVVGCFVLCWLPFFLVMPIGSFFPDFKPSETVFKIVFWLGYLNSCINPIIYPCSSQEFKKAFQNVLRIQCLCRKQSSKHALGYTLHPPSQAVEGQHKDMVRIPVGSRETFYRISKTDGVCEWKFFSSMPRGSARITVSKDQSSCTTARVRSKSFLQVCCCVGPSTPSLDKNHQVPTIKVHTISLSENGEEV
SMILES | inhibition
O=C(NC[C@@H]1[C@H]2CN(C(=O)OCc3cc(C(F)(F)F)cc(C(F)(F)F)c3)C[C@@H]12)c1ccc2[nH]nnc2c1 | 4.06%
Cc1nc(C2CCN(C(=O)c3ccc(OC(F)(F)F)cc3N)CC2)c2ncc(N3CCN(C)CC3)cc2n1 | -9.85%
Cc1nccc(COC(=O)N2C[C@@H]3[C@@H](CNC(=O)c4ccc5[nH]nnc5c4)[C@@H]3C2)n1 | -3.15%
C[C@@H]1CN(c2cc(-c3nn(C)c4ccc(OC5(C)CC5)cc34)ncn2)C[C@H](C)O1 | -3.6%
O=C(Nc1cccnn1)N1CC(CC=Cc2cncc(Oc3ccc(C(F)(F)F)cn3)n2)C1 | -14.3%
Cc1nc(Cc2cccc(C(F)(F)F)c2)sc1-c1ccc(C(N)=O)nc1 | -13.7%
CC(=O)c1c(NS(C)(=O)=O)c2cc(-c3ccc(Cl)cc3)c(-c3ccc(Cl)cc3Cl)nc2n(C)c1=O | 28.5%
CCOC(=O)c1cc2cc(-c3cc(C(=O)NCc4ccc(C(=O)O)cc4)nn3C)ccc2[nH]1 | -6.15%
O=C1c2ccc(Nc3ccc(F)cc3F)cc2CCc2ccc(OC[C@H](O)CO)cc21 | 21.8%
COc1nc2ccc([C@@](O)(c3ccccc3)C3CCN(C(C)=O)CC3)cc2c(Cl)c1Cc1ccc(-n2cccn2)cc1 | 10.3%
Cc1c(N2CCCC2)nc2ccc(Br)cc2c1C(=O)NC[C@H](CCC(=O)O)c1ccccc1Cl | 1.72%
Cc1cc(-n2nc(Cc3cc(F)cc(C(F)(F)F)c3)nc2C)ccc1C(N)=O | -13.5%
CN1C(=O)[C@@H](N2CCc3cn(Cc4ccccc4)nc3C2=O)COc2ccccc21 | -0.5%
CC(=O)N1CCC(c2ccc(C(=O)NC(=N)N)cc2C(F)(F)F)CC1 | 6.05%
CNC(=O)c1ccc(Nc2ncc(C(F)(F)F)c(NCc3nccnc3N(C)S(C)(=O)=O)n2)cc1 | -4.42%
O=C(O)c1cc(-c2ccc(C3CCNCC3)cc2)c2ccc(-c3ccc(C(F)(F)F)cc3)cc2c1 | 46.7%
CN1CCN(C(=O)C(C)(C)c2ccc(C(=O)Nc3cn4cc(-c5ccncc5)ccc4n3)cc2)CC1 | -5.18%
O[C@]1(C(F)(F)F)CCCC[C@H]1Nc1ccc(F)cc1 | -8.22%
COCCc1ccc(-c2c(C)nc3c(N4CCOCC4)ccnn23)cn1 | 23%
CC(C)CC(=O)N1CCc2nc(-c3ccc(Br)cc3)nc(N(C)Cc3ccccc3)c2C1 | -1.11%
O=C1CCc2cc(Nc3cc(OC4CCOCC4)c([N+](=O)[O-])cc3Cl)ccc2N1 | -8.76%
C[C@H](NC(=O)c1cnc2n1[C@](C)(Cc1ccc(C#N)cc1)C(=O)N2c1cc(Cl)c(F)c(Cl)c1)C(=O)NC1(c2ccccn2)CC1 | -8.89%
CC1=C(C#N)C(c2ccc3c(c2)c(NC(=O)c2ccccc2C)nn3C)C(C#N)=C(C)N1 | 1.96%
CC(C)(O)c1cncc(-c2nc3ccc(F)cc3n2C2CC2)c1 | -3.03%
CNC(=O)Nc1ccc2c(c1)[C@]1(CC2)OC(=O)N(CC(=O)N(Cc2ccc(F)cc2)[C@@H](C)C(F)(F)F)C1=O | 0.04%

Sample 2
Species: human
Matrix: microsomes or S9
Concentration: 2 µM
Time: 0.5 h
SMILES | remaining compound
CC(C)(C)n1cc(Nc2cccc(F)c2C#N)cn1 | 35.9%
Cc1ccccc1-c1nc2ccccc2cc1CN(C(=O)CCNC(=O)OC(C)(C)C)c1ccnc(S(C)(=O)=O)n1 | 51%
CC(C)(C)C(=O)N1CC(C(=O)NC2CCCC2)C2(CCOCC2)C1 (stereo not drawn) | 75.8%
COc1ccc2c(n1)c1c(n2-c2ccccn2)CCC1 | 0.0375%
CC(C)COc1cc(=O)n2c(c1C(=O)NCc1ccc(C(F)(F)F)cc1)CCCCC2 | 0.195%

Sample 3
Compound: Cc1ccc(NC(=O)c2ccnc(C(F)(F)F)c2)cc1-c1cc(OCCO)nc(N2CCOCC2)c1
Concentration: 1 µM
target | technique | refers to | notes | reference | remaining binding [%]
Serine/threonine-protein kinase 32C (STK32C, Homo sapiens, UniProt Q86UX6) | competitive binding panel | YANK3 |  | vehicle | 100
Phosphatidylinositol 4,5-bisphosphate 3-kinase catalytic subunit alpha isoform (PIK3CA, Homo sapiens, UniProt P42336, H1047L) | competitive binding panel |  |  | vehicle | 98
Dual specificity mitogen-activated protein kinase kinase 1 (MAP2K1, Homo sapiens, UniProt Q02750) | competitive binding, scanMAX |  | MEK1, 1000 nM |  | 86
Serine/threonine-protein kinase 32A (STK32A, Homo sapiens, UniProt Q8WU08) | competitive binding panel | YANK1 |  | vehicle | 90
Platelet-derived growth factor receptor alpha (PDGFRA, Homo sapiens, UniProt P16234) | competitive binding panel |  |  | vehicle | 72
Protein kinase C epsilon type (PRKCE, Homo sapiens, UniProt Q02156) | competitive binding panel |  |  | vehicle | 75
Tyrosine-protein kinase ITK/TSK (ITK, Homo sapiens, UniProt Q08881) | competitive binding panel |  |  | vehicle | 100

Sample 4
Target: Eukaryotic initiation factor 4A-III (Homo sapiens, UniProt P38919)
Chain of UniProt P38919 (whole entry, looked up): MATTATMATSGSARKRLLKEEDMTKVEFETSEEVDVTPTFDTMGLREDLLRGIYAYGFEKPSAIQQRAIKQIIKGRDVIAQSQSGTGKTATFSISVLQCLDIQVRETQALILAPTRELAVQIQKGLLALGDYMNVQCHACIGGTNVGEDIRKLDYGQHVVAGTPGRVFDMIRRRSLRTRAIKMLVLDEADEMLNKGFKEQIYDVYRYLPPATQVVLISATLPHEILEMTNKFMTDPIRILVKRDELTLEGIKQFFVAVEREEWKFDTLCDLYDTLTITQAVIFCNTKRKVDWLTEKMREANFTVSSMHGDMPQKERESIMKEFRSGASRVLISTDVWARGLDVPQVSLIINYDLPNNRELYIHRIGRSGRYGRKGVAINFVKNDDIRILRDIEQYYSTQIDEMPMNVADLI
Read-out: RNA clamping
Technique: fluorescence polarization
Concentration: concentration not given
Notes: mean of two replicates
With: FAM-labelled poly r(AG)8 RNA
SMILES | fluorescence polarization change [mP]
COC(=O)[C@@H]1[C@@H](c2ccccc2)[C@]2(c3ccc(OC)cc3)Oc3cc(OC)cc(OC)c3[C@@]23NC(CCl)=N[C@@]13O | 13.5
COc1ccc([C@@]23Oc4cc(OC)cc(OC)c4[C@@]24NC(C)=N[C@@]4(O)[C@H](C(C)=O)[C@H]3c2ccccc2)cc1 | 28
COc1cc(OC)c2c(c1)O[C@@]1(c3ccc(OC)c(O)c3)[C@H](c3ccccc3)[C@@H](C(=O)c3ccco3)[C@@H](O)[C@@]21O | -1.8
COc1cc(OC)c2c(c1)O[C@@]1(c3ccc(C#N)cc3)[C@H](c3ccccc3)[C@@H](CN(C)C)[C@@H](O)[C@@]21O | 46.5

Sample 5
Target: Calcium/calmodulin-dependent protein kinase type II subunit alpha (CAMK2A, Homo sapiens, UniProt Q9UQM7)
Chain of UniProt Q9UQM7 (whole entry, looked up): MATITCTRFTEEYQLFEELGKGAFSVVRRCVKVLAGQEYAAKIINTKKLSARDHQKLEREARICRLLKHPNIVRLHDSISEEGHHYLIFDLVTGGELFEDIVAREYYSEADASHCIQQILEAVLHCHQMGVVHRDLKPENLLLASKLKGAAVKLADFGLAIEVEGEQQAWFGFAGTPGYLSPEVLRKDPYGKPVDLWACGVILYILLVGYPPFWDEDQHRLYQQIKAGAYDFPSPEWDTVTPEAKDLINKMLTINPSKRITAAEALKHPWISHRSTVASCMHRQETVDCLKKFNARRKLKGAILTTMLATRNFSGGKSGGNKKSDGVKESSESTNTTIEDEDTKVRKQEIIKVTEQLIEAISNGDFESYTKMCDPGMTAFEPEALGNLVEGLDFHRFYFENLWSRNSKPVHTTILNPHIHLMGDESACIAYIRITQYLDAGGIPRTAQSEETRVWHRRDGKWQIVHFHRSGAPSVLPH
Read-out: enzyme activity
Action: inhibitor
Concentration: 10 µM
Compound | inhibition
CC(C)NCC(O)c1ccc(O)c(O)c1 (stereo not drawn) | -13%
O=C1CC(C(=O)O)c2c1oc(=O)c1cc(O)c(O)c(O)c21 (stereo not drawn) | -45%
CC(=O)O[C@@H](CC=C(C)C)C1=CC(=O)c2c(O)ccc(O)c2C1=O | -11%
COC[C@H]1C[C@@H](c2ncc(-c3ccc4c(c3)COc3cc5c(ccc6[nH]c([C@@H]7CC[C@H](C)N7C(=O)[C@@H](NC(=O)OC)C(C)C)nc65)cc3-4)[nH]2)N(C(=O)[C@H](NC(=O)OC)c2ccccc2)C1 | -13%
CCCCCCCCCCCCCCCCCCCCCCCC(=O)OC | -3%

Sample 6
Cell line: HaCaT
Concentration: 100 µM
Time: 18 h
SMILES | viability
CC(C)NCC(O)COc1cccc2[nH]c3ccccc3c12 (stereo not drawn) | 34.6%
CC(C)(C)C(=O)OCOP(=O)(COCCn1cnc2c(N)ncnc21)OCOC(=O)C(C)(C)C | 91.8%
CCn1c(=O)c2c(nc(/C=C/c3ccc(OC)c(OC)c3)n2C)n(CC)c1=O | 58.7%
CC(=O)c1ccc2c(c1)N(CCCN1CCC(CCO)CC1)c1ccccc1S2 | 17.1%
Cc1ccnc(NS(=O)(=O)c2ccc(N)cc2)n1 | 93.1%

For quick reference, copied from above (sample 6):
SMILES | viability
Cc1ccnc(NS(=O)(=O)c2ccc(N)cc2)n1 | 93.1%
CC(C)(C)C(=O)OCOP(=O)(COCCn1cnc2c(N)ncnc21)OCOC(=O)C(C)(C)C | 91.8%
CC(C)NCC(O)COc1cccc2[nH]c3ccccc3c12 (stereo not drawn) | 34.6%
CC(=O)c1ccc2c(c1)N(CCCN1CCC(CCO)CC1)c1ccccc1S2 | 17.1%
CCn1c(=O)c2c(nc(/C=C/c3ccc(OC)c(OC)c3)n2C)n(CC)c1=O | 58.7%
